Measurements from different studies.
Compare with care: the assays were run in different laboratories. Numbers after ± are the reported error.
rep main protease: Replicase polyprotein 1ab, main protease (rep, Middle East respiratory syndrome-related coronavirus, UniProt K9N7C7)
rep papain-like protease: Replicase polyprotein 1ab, papain-like protease (rep, Middle East respiratory syndrome-related coronavirus, UniProt K9N7C7)
rep macrodomain 1: Replicase polyprotein 1ab, macrodomain 1 (rep, Middle East respiratory syndrome-related coronavirus, UniProt K9N7C7)

Structure (SMILES)	tested on	assay	test system	conditions	measurement	result
CCC[C@H](NC(=O)[C@H](CC(C)C)NC(=O)OCc1ccccc1)C(=O)C(=O)NCc1ccccn1	rep main protease	enzyme activity, inhibitor	–	–	IC50	6.68 µM
CCC(C(=O)Nc1ccccc1C)n1c(SCc2ccc(F)cc2)nc2cccnc21 (centres unmarked)	rep papain-like protease	enzyme activity, inhibitor	–	–	IC50	> 100 µM
O=C(c1ccc(Br)cc1)N1CCC(c2ccn3ncc(C(=O)N4CCCCC4)c3c2)CC1	rep macrodomain 1	inhibitor	–	MERS-CoV	IC50	182 ± 4.7 µM
C=CC(=O)NC(CC(=C)C)C(=O)N1CC(C(=O)NC(C(=O)NC)C(C)CC)C(c2cccc(C(F)(F)F)c2)C1 (centres unmarked)	rep main protease	enzyme activity, inhibitor	–	–	IC50	> 100 µM
CN(C)c1ccc(/C=C/C(=O)N[C@@H](Cc2ccccc2)C(=O)N[C@H](C=O)C[C@@H]2CCNC2=O)cc1	rep main protease	enzyme activity, inhibitor	–	–	IC50	4.7 µM
C=CCC(NC(=O)C1CN(C(=O)C(CC(=C)C)NC(=O)C=C)CC1c1cccc(C(F)(F)F)c1)C(=O)NC (centres unmarked)	rep main protease	enzyme activity, inhibitor	–	–	IC50	> 100 µM
CCC(C(=O)Nc1ccccc1C)n1c(SCc2ccc(F)cc2)nc2ncccc21 (centres unmarked)	rep papain-like protease	enzyme activity, inhibitor	–	–	IC50	> 100 µM
C=CC(=O)NC(CC(=C)C)C(=O)N1CC(C(=O)NC(Cc2ccccc2)C(=O)NC)C(c2cccc(C(F)(F)F)c2)C1 (centres unmarked)	rep main protease	enzyme activity, inhibitor	–	–	IC50	> 100 µM
COc1cc(OC)cc(C(=O)N(CCC(=O)N2CCNCC2)Cc2cccc(Cl)c2)c1	rep macrodomain 1	inhibitor	–	MERS-CoV	IC50	> 300 µM
CCCCCCCCCCCCCCCC(=O)N[C@@H](CCC(=O)NCCOCCOCCC(=O)NCCOCCOCCC(=O)NCCCC[C@H](NC(=O)[C@H](CC(=O)O)NC(=O)[C@H](CC(C)C)NC(=O)[C@H](Cc1ccc(O)cc1)NC(=O)[C@H](CCCCN)NC(=O)[C@H](CO)NC(=O)[C@H](Cc1ccc(O)cc1)NC(=O)[C@H](CC(=O)O)NC(=O)[C@H](CO)NC(=O)[C@@H](NC(=O)[C@H](Cc1ccccc1)NC(=O)[C@@H](NC(=O)CNC(=O)[C@H](CCC(N)=O)NC(=O)[C@@H](CO)NC(=O)[C@@H](N)Cc1c[nH]cn1)[C@@H](C)O)[C@@H](C)O)C(=O)N[C@@H](CCCNC(=N)N)C(=O)N[C@@H](CCCNC(=N)N)C(=O)N[C@@H](C)C(=O)N[C@@H](CCC(N)=O)C(=O)N[C@@H](CC(=O)O)C(=O)N[C@@H](Cc1ccccc1)C(=O)N[C@H](C(=O)N[C@@H](CCC(N)=O)C(=O)N[C@@H](Cc1c[nH]c2ccccc12)C(=O)N[C@@H](CC(C)C)C(=O)N[C@@H](CC(C)C)C(=O)N[C@@H](CC(N)=O)C(=O)N[C@H](C(=O)NCC(=O)NCC(=O)N1CCC[C@H]1C(=O)N[C@@H](CO)C(=O)N[C@@H](CO)C(=O)NCC(=O)N[C@@H](C)C(=O)N1CCC[C@H]1C(=O)N1CCC[C@H]1C(=O)N1CCC[C@H]1C(=O)N[C@@H](CO)C(N)=O)[C@@H](C)O)C(C)C)C(=O)O	–	–	rhesus monkey, plasma	subcutaneous, 20 µg/kg, single dose	MRT	5.85 h
CCC(C(=O)Nc1ccccc1C)n1cccc2nc(SCc3ccc(F)cc3)nc1-2 (centres unmarked)	rep papain-like protease	enzyme activity, inhibitor	–	–	IC50	> 100 µM
O=C(/C=C/c1ccc2c(c1)OCO2)N[C@@H](Cc1ccccc1)C(=O)N[C@H](CO)C[C@@H]1CCNC1=O	rep main protease	enzyme activity, inhibitor	–	–	IC50	> 25 µM
CCCC(C(=O)Nc1ccccc1C)n1c(SCc2ccc(F)cc2)nc2cccnc21 (centres unmarked)	rep papain-like protease	enzyme activity, inhibitor	–	–	IC50	> 100 µM
O=C[C@H](C[C@@H]1CCNC1=O)NC(=O)[C@H](Cc1ccccc1)NC(=O)/C=C/c1cccc(Br)c1	rep main protease	enzyme activity, inhibitor	–	–	IC50	2.4 µM

A few entries again:
Structure (SMILES)	tested on	assay	test system	conditions	measurement	result
CCC[C@H](NC(=O)[C@H](CC(C)C)NC(=O)OCc1ccccc1)C(=O)C(=O)NCc1ccccn1	rep main protease	enzyme activity, inhibitor	–	–	IC50	6.68 µM
CCC(C(=O)Nc1ccccc1C)n1c(SCc2ccc(F)cc2)nc2cccnc21 (centres unmarked)	rep papain-like protease	enzyme activity, inhibitor	–	–	IC50	> 100 µM
